{"data": "Assay results collected from several papers", "cell line": "A549", "note": "Compare with care: the assays were run in different laboratories. Numbers after ± are the reported error."}
{"SMILES": "C=C(CC)C(=O)c1ccc(OCC(=O)NCCNC(=O)COc2ccc(C(=O)C(=C)CC)c(Cl)c2Cl)c(Cl)c1Cl", "assay": "cell growth, CCK-8", "setting": "72 h", "measurement": "IC10", "value": "~700 nM"}
{"SMILES": "CCOC(=O)C1=C(C)NC(=O)N[C@@H]1/C=C/c1ccc(OC)cc1", "assay": "wound healing", "setting": "7 and 15 µM, 24 h", "how to read": "reference: vehicle DMSO", "measurement": "cell migration", "value": "decreased"}
{"SMILES": "O=C(CSc1nc2ccccc2s1)Nc1nonc1[N+](=O)[O-]", "assay": "cell growth or viability, ATP luminescence", "measurement": "GI50", "value": "> 40000 nM"}
{"SMILES": "CCCC1OC2CC3C4CCC5=CC(=O)C=CC5(C)C4C(O)CC3(C)C2(C(=O)COC(=O)CN)O1 (centres unmarked)", "assay": "IL-6 release, inhibitor, ELISA", "setting": "1 nM, 24 h, LPS-stimulated", "measurement": "inhibition", "value": "> 50%"}
{"SMILES": "COc1ccc(/C=C/C2=[N+]3C(=C(COC(C)=O)c4c(C)cc(/C=C/c5ccc(OC)cc5)n4[B-]3(F)F)C(C)=C2)cc1", "assay": "resazurin", "setting": "together with: 645 nm light", "how to read": "reference: dark over light IC50", "measurement": "phototoxicity index", "value": "9 ± 2"}
{"SMILES": "CC1=C(Cn2c3ccc(Cl)c(=O)c-3nc3ccccc32)CCC(C)(C)C1", "assay": "cytotoxicity, WST-8", "how to read": "reference: IC50 MRC5 over IC50 A549", "measurement": "selectivity index", "value": 0.49}
{"SMILES": "Cc1cccc(-c2cccc(C)n2)n1.[Cl-].[Cl-].[Ru+2].c1ccc(-c2ccccn2)nc1.c1ccc(-c2ccccn2)nc1", "assay": "Seahorse proton efflux", "setting": "concentration not given, dark and irradiated", "measurement": "glycolytic rate", "value": "no effect"}
{"SMILES": "Nc1nccc(-n2cc(C(=O)N[C@H]3CCCNC3)c3ccc(C#CC4(O)CCCCC4)cc32)n1", "assay": "wound-healing", "setting": "5 µM", "measurement": "cell migration", "value": "64%"}
{"SMILES": "[Cl-].[Cl-].[Ru+2].c1ccc2nc(-c3ccc4ccccc4n3)ccc2c1.c1ccc2nc(-c3ccc4ccccc4n3)ccc2c1.c1cnc2c(c1)ccc1cccnc12", "assay": "oxygen consumption rate, Seahorse extracellular flux", "setting": "1 h, dark", "measurement": "lowest concentration inhibiting OCR", "value": "> 10 µM"}
{"SMILES": "[Cl-].[Cl-].[Ru+2].c1ccc(-c2ccccn2)nc1.c1ccc(-c2ccccn2)nc1.c1cnc2c(c1)ccc1cccnc12", "assay": "LC-MS/MS", "setting": "3 µM", "measurement": "time to plateau uptake", "value": "12 h"}
{"SMILES": "FC(F)(F)c1ccnc(-c2cc(C(F)(F)F)ccn2)c1.FC(F)(F)c1ccnc(-c2cc(C(F)(F)F)ccn2)c1.[Cl-].[Cl-].[Ru+2].c1csc(-c2nc3c4cccnc4c4ncccc4c3[nH]2)c1", "assay": "cell viability", "setting": "100 J/cm2 light, normoxia, together with: visible light 400-700 nm", "measurement": "EC50", "value": "29000 nM"}
{"SMILES": "C=C1CC[C@@H]2[C@](C)(CO)[C@H](O)CC[C@@]2(C)[C@@H]1/C=C/C1=CCOC1=O", "assay": "cell growth or viability, MTT", "setting": "20 µM, 48 h", "measurement": "inhibition", "value": "34.3%"}
{"SMILES": "CC(=O)OC[C@H]1O[C@@H](Sc2sc(C(=O)c3ccc(Br)cc3)c(N)c2-c2nc3ccccc3s2)[C@H](OC(C)=O)[C@@H](OC(C)=O)[C@H]1OC(C)=O", "assay": "SRB", "setting": "10 µM, 48 h", "measurement": "growth", "value": "92.2%"}
{"SMILES": "COc1ccc([C@@H]2CC(=O)c3c(O)cc(O[C@@H]4O[C@H](CO[C@@H]5O[C@@H](C)[C@H](O)[C@@H](O)[C@H]5O)[C@@H](O[C@H]5O[C@H](CO)[C@@H](O)[C@H](O)[C@H]5O)[C@H](O)[C@H]4O)cc3O2)cc1O", "assay": "cell migration, scratch", "setting": "100 µg/mL, 0 h", "measurement": "gap closure", "value": "0%"}
{"SMILES": "O=C(CSC(=S)N1CCCCCC1)Nc1ccc2c(c1)C(=O)c1ccccc1C2=O", "setting": "25 µM, 4 h", "measurement": "phosphotyrosine staining", "value": "no effect"}
{"SMILES": "COc1ccc2c(c1)c(CC(=O)Nc1nnc(CCCCc3ccc(NC(=O)Cc4cccc(OC(F)(F)F)c4)nn3)[se]1)cn2C", "assay": "EZMTT", "setting": "concentration not given, 120 h", "measurement": "growth inhibition", "value": "60 to 80%"}
{"SMILES": "CC(=O)c1cccc(NC2C(N)C(NC(=O)N(C)C)(C(C)O)C(O)C2(O)COC(=O)c2c(C)cccc2O)c1 (centres unmarked)", "assay": "cytotoxicity", "setting": "free compound", "measurement": "EC50", "value": "32 nM"}
{"note": "Excerpt of the above:"}
{"SMILES": "FC(F)(F)c1ccnc(-c2cc(C(F)(F)F)ccn2)c1.FC(F)(F)c1ccnc(-c2cc(C(F)(F)F)ccn2)c1.[Cl-].[Cl-].[Ru+2].c1csc(-c2nc3c4cccnc4c4ncccc4c3[nH]2)c1", "assay": "cell viability", "setting": "100 J/cm2 light, normoxia, together with: visible light 400-700 nm", "measurement": "EC50", "value": "29000 nM"}
